{"data": "Measured values of several laboratories", "note": "Each line is one published result; not all experiments were run side by side. ± marks the error that the study gave."}
{"SMILES": "N=C(N)NCCC[C@@H]1NC(=O)[C@H](CCCCNC(=O)c2ccc(CNC34CNCCNCC(NCc5ccc(C(=O)NCCCC[C@@H]6NC(=O)[C@@H](Cc7ccc(O)cc7)NC(=O)[C@H](CC(=O)O)NC(=O)CNC(=O)[C@H](CCCNC(=N)N)NC6=O)cc5)(CNCCNC3)CNCCNC4)cc2)NC(=O)[C@@H](Cc2ccc(O)cc2)NC(=O)[C@H](CC(=O)O)NC(=O)CNC1=O [copper-64 labelled]", "assay": "HPLC", "test system": "nude mouse, U-87 MG xenograft, tumour", "setting": "1 h post injection", "measurement": "intact compound", "value": "> 95%"}
{"SMILES": "N=C(N)NCCC[C@@H]1NC(=O)[C@H](CCCCNC(=O)CCOCCOCCOCCOCCNC(=O)CN2CCN(CC(=O)O)CCN(CC(=O)O)CCN(CC(=O)O)CC2)NC(=O)[C@@H](Cc2ccccc2)NC(=O)[C@H](CC(=O)O)NC(=O)CNC1=O [indium-111 labelled]", "test system": "female athymic nude mice, kidney", "setting": "intravenous, 3 µCi, 24 h, U-87 MG glioma xenograft", "measurement": "tissue uptake", "value": "1.92 ± 0.16 %ID/g"}
{"SMILES": "CCCC[C@H](NC(=O)CNC(=O)[C@H](CO)NC(=O)CNC(=O)c1ccc(NN)nc1)C(=O)N[C@H]1CC(=O)NCCCC[C@@H](C(N)=O)NC(=O)[C@H](Cc2c[nH]c3ccccc23)NC(=O)[C@H](CCCNC(=N)N)NC(=O)[C@@H](Cc2ccccc2)NC(=O)[C@H](Cc2c[nH]cn2)NC1=O [technetium-99m labelled]", "test system": "C57 mouse, B16/F1 melanoma, heart", "setting": "intravenous, 2 h", "measurement": "uptake", "value": "0.06 ± 0.02 %ID/g"}
{"SMILES": "N=C(N)NCCC[C@@H]1NC(=O)[C@H](CCCCNC(=O)CCOCCOCCOCCOCCNC(=O)CC[C@H](NC(=O)CCOCCOCCOCCOCCNC(=O)CC[C@H](NC(=O)CN2CCN(CC(=O)O)CCN(CC(=O)O)CCN(CC(=O)O)CC2)C(=O)NCCOCCOCCOCCOCCC(=O)N[C@@H](CCC(=O)NCCOCCOCCOCCOCCC(=O)NCCCC[C@@H]2NC(=O)[C@@H](Cc3ccccc3)NC(=O)[C@H](CC(=O)O)NC(=O)CNC(=O)[C@H](CCCNC(=N)N)NC2=O)C(=O)NCCOCCOCCOCCOCCC(=O)NCCCC[C@@H]2NC(=O)[C@@H](Cc3ccccc3)NC(=O)[C@H](CC(=O)O)NC(=O)CNC(=O)[C@H](CCCNC(=N)N)NC2=O)C(=O)NCCOCCOCCOCCOCCC(=O)NCCCC[C@@H]2NC(=O)[C@@H](Cc3ccccc3)NC(=O)[C@H](CC(=O)O)NC(=O)CNC(=O)[C@H](CCCNC(=N)N)NC2=O)NC(=O)[C@@H](Cc2ccccc2)NC(=O)[C@H](CC(=O)O)NC(=O)CNC1=O [indium-111 labelled]", "test system": "female athymic nude mice, liver", "setting": "intravenous, 3 µCi, 1 h, U-87 MG glioma xenograft", "measurement": "tissue uptake", "value": "4 %ID/g"}
{"SMILES": "CC(C)C[C@@H]1NC(=O)[C@H](C(C)C)NC(=O)[C@H](CO)NC(=O)CNC(=O)CNC(=O)[C@H](CCCNC(=N)N)NC(=O)[C@@H]2CCCN2C(=O)[C@@H](NC(=O)CC[C@H](NC(=O)c2ccc(N(C)Cc3cnc4nc(N)nc(N)c4n3)cc2)C(=O)O)C(C)(C)SSC[C@@H](C(=O)O)NC(=O)CNC(=O)[C@H]([C@@H](C)O)NC(=O)[C@H](C(C)C)NC1=O", "setting": "70 °C", "measurement": "pH of maximum stability", "value": 6}
{"SMILES": "N=C(N)NCCC[C@@H]1NC(=O)[C@H](CCCCNC(=O)CC[C@H](NC(=O)CCOCCOCCOCCOCCNC(=O)CC[C@H](NC(=O)CN2CCN(CC(=O)O)CCN(CC(=O)O)CCN(CC(=O)O)CC2)C(=O)NCCOCCOCCOCCOCCC(=O)N[C@@H](CCC(=O)NCCCC[C@@H]2NC(=O)[C@@H](Cc3ccccc3)NC(=O)[C@H](CC(=O)O)NC(=O)CNC(=O)[C@H](CCCNC(=N)N)NC2=O)C(=O)NCCCC[C@@H]2NC(=O)[C@@H](Cc3ccccc3)NC(=O)[C@H](CC(=O)O)NC(=O)CNC(=O)[C@H](CCCNC(=N)N)NC2=O)C(=O)NCCCC[C@@H]2NC(=O)[C@@H](Cc3ccccc3)NC(=O)[C@H](CC(=O)O)NC(=O)CNC(=O)[C@H](CCCNC(=N)N)NC2=O)NC(=O)[C@@H](Cc2ccccc2)NC(=O)[C@H](CC(=O)O)NC(=O)CNC1=O [indium-111 labelled]", "test system": "female athymic nude mice, blood", "setting": "intravenous, 3 µCi, 72 h, U-87 MG glioma xenograft", "measurement": "tissue uptake", "value": "0.02 ± 0.02 %ID/g"}
{"SMILES": "CC(C)C[C@H](NC(=O)[C@@H]1CCCN1C(=O)[C@H](CCCCN)NC(=O)[C@@H](N)CO)C(=O)N1CCC[C@H]1C(=O)N[C@@H](CCC(=O)O)C(=O)N[C@H](C(=O)N[C@H](C(=O)N[C@@H](CC(=O)O)C(=O)N[C@@H](CCC(=O)O)C(=O)N[C@@H](Cc1ccc(O)cc1)C(=O)N[C@@H](Cc1cn(CCOCCOCCOCCNC(=O)CCc2ccc(O)c(CN(CCN(CC(=O)O)Cc3cc(CCC(=O)NCCCC[C@H](NC(=O)N[C@@H](CCC(=O)O)C(=O)O)C(=O)O)ccc3O)CC(=O)O)c2)nn1)C(=O)O)[C@@H](C)O)C(C)C [gallium-68 labelled]", "test system": "NMRI nu/nu mice, LNCaP tumour, liver", "setting": "10 MBq, high molar activity", "measurement": "standardized uptake value", "value": "0.11 g/g"}
{"SMILES": "CSCC[C@H](NC(=O)[C@H](CC(C)C)NC(=O)[C@H](Cc1c[nH]cn1)NC(=O)CNC(=O)[C@@H](NC(=O)[C@H](C)NC(=O)[C@H](Cc1c[nH]c2ccccc12)NC(=O)[C@H](CCC(N)=O)NC(=O)CCCCCNC(=O)CNC(=O)CNC(=O)CNC(=O)CSC(C)=O)C(C)C)C(N)=O [technetium-99m labelled]", "test system": "Swiss mouse, lung", "setting": "intravenous, 18.5 MBq, 30 min", "measurement": "tissue uptake", "value": "0.51 ± 0.06 %ID/g"}
{"SMILES": "CCCC[C@H](NC(=O)CCCCCCCNC(=O)c1ccc(NN)nc1)C(=O)N[C@H]1CC(=O)NCCCC[C@@H](C(N)=O)NC(=O)[C@H](Cc2c[nH]c3ccccc23)NC(=O)[C@H](CCCNC(=N)N)NC(=O)[C@@H](Cc2ccccc2)NC(=O)[C@H](Cc2c[nH]cn2)NC1=O [technetium-99m labelled]", "test system": "B16/F1 melanoma-bearing C57 mice", "setting": "2 h post-injection", "measurement": "urinary clearance", "value": "~88 % injected activity"}
{"SMILES": "CCCC[C@H](NC(=O)CNC(=O)CNC(=O)c1ccc(NN)nc1)C(=O)N[C@H]1CC(=O)NCCCC[C@@H](C(N)=O)NC(=O)[C@H](Cc2c[nH]c3ccccc23)NC(=O)[C@H](CCCNC(=N)N)NC(=O)[C@@H](Cc2ccccc2)NC(=O)[C@H](Cc2c[nH]cn2)NC1=O [technetium-99m labelled]", "test system": "C57 mouse, B16/F1 melanoma-bearing", "setting": "intravenous, 4 h", "how to read": "relative to: tumour over lung", "measurement": "tissue uptake ratio", "value": 55.1}
{"note": "Excerpt of the above:"}
{"SMILES": "N=C(N)NCCC[C@@H]1NC(=O)[C@H](CCCCNC(=O)c2ccc(CNC34CNCCNCC(NCc5ccc(C(=O)NCCCC[C@@H]6NC(=O)[C@@H](Cc7ccc(O)cc7)NC(=O)[C@H](CC(=O)O)NC(=O)CNC(=O)[C@H](CCCNC(=N)N)NC6=O)cc5)(CNCCNC3)CNCCNC4)cc2)NC(=O)[C@@H](Cc2ccc(O)cc2)NC(=O)[C@H](CC(=O)O)NC(=O)CNC1=O [copper-64 labelled]", "assay": "HPLC", "test system": "nude mouse, U-87 MG xenograft, tumour", "setting": "1 h post injection", "measurement": "intact compound", "value": "> 95%"}
